Published values pooled from the literature.
“And” joins repeats or separate records; there may be more than shown. ± marks the error that the study gave.
Chain of UniProt O88693 (whole entry, looked up): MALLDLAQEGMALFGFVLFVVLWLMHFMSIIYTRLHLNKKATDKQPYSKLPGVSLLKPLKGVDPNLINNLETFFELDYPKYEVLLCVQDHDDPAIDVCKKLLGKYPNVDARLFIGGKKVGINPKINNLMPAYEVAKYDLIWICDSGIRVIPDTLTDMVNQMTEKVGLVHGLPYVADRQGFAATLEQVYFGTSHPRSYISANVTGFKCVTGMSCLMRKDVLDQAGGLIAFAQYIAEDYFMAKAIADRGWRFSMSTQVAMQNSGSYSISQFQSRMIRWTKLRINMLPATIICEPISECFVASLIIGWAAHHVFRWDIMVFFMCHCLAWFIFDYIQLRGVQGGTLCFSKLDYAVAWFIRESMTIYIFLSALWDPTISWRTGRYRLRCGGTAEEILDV

Cn1ncc2cc(-c3cncc(Cl)c3N3CCC4(CCNC4=O)CC3)ccc21 — log2 fold change (LS174T; gene expression, microarray, item: LDB2 mRNA; concentration not given, 4 h; relative to: untreated cells): 2.93
CCCC[C@H](NC(C)=O)C(=O)N[C@@H](CCC(=O)O)C(=O)N[C@@H](CO)C(=O)N[C@@H](CC(=O)O)C(=O)COC(=O)c1c(C)cccc1C — LDH release (THP-1 cells expressing FKBP-caspase-4; pyroptosis, inhibitor; concentration not given, together with: B/B dimerizer): 53% and 55.6% and 59.2%
O=C(CN1CCCCC1)Nc1ccc(C2CCCCC2)cc1 — hepatic clearance (human liver microsomes; 1 µM, without NADPH): 12 mL/min/kg
O=C(C[Se]C(=O)c1ccc2ccccc2c1)Nc1cccc(C(F)(F)F)c1 — mean growth percent (NCI60 leukemia subpanel; cell growth; 10 µM, 48 h, one-dose): -80.5%
CC(C)S(=O)(=O)NC12CCCC(C)(CCC3C1CC3(C)C)C2 (stereo not shown) — inhibition (HT-29; cell growth or viability, CCK-8; 10 µM): < 50%
Cc1n[nH]c(C)c1CCCOc1cc(C(=O)NCCCCC(NC(=O)CN2CCN(CC(=O)[O-])CCN(CC(=O)[O-])CCN(CC(=O)[O-])CC2)C(=O)NCC2CCC(C(=O)NC(Cc3ccc4ccccc4c3)C(=O)NCCCCC(NC(=O)NC(CCC(=O)O)C(=O)O)C(=O)O)CC2)ccc1F.[68Ga+3] (stereo not shown) — maximum uptake (22Rv1; 2 h; relative to: added dose): 6 ± 0.82%
O=S(=O)(N[C@H]1CCO[C@@H](C2c3ccc(F)cc3CCc3cc(F)ccc32)C1)c1ccc(OC(F)(F)F)cc1 — CCR2 protein level (D341; immunoblot; concentration not given): decreased
CC12CCCC(NS(=O)(=O)C3CC3)(C1)C1CC(C)(C)C1CC2 (stereo not shown) — inhibition (HT-29; cell growth or viability, CCK-8; 10 µM): < 50%
CCC(=CCc1c(O)cc2c(c1O)C(=O)CC(c1cc(OC)ccc1O)O2)CC (stereo not shown) — inhibition (HeLa; cell growth or viability, MTT; 25 µM, 48 h): 17.9%
N#C[C@@H]1CC(F)(F)CN1C(=O)CNC(=O)c1ccnc2ccc(OCCCN3CCN(C(=O)CCc4ccc5c(c4)CN4CCN(Cc6cc(CCC(=O)O)ccc6O)CC(=O)[O][Al-]([18F])([O]C(=O)C4)[O]5)CC3)cc12 (stereo partly shown) — internalized fraction (HT1080 cells expressing human FAP; 30 min, 37 °C): 86.6 ± 1.7%
Cc1ncsc1-c1ccc(C(C)NC(=O)C2CC(O)CN2C(=O)C(NC(=O)CCCCCCCCCCN2CCCC(Nc3ncc(Cl)c(Nc4ccccc4S(=O)(=O)C(C)C)n3)C2)C(C)(C)C)cc1 (stereo not shown) — log2 fold change (22Rv1; RNA-seq, item: RBAK mRNA; concentration not given; relative to: DMSO): -1
CNS(=O)(=O)Nc1nccc(Cc2c(C)c3ccc(Oc4ncccc4F)cc3oc2=O)c1F — IC50 (639-V; cell viability; 7 days): > 1000 nM
OC[C@@H]1[C@@H](O)[C@H](O)[C@@H](O)CN1CCCCCOCc1ccc(-c2ccc(Cl)cc2)cc1 — IC50 (Ugcg (Mus musculus, UniProt O88693); enzyme activity, inhibitor, fluorescence): 25 nM
COc1ccc(CNC[C@](O)(COCc2ccccc2)[C@@H]2CC[C@@H](C)C[C@H]2OCc2ccccc2)cc1 — inhibition (HeLa; cell growth or viability, MTT; 10 µM, 72 h): 97.7%
O=C(Nc1nnc2c1c(-c1ccc(Cl)cc1)nc1sc(=Cc3ccco3)c(=O)n12)c1ccccc1 (mixture of isomers) — cell growth (SK-MEL-2; SRB; 10 µM, NCI60 single-dose screen; relative to: untreated): 68.9%
CN1CCCNC(=O)c2cccc(c2)C(=O)NCCCN(C)CCCNc2cccc3c2C(=O)c2cccc(c2C3=O)NCCC1 — log2 fold change (SAS; RNA-Seq, item: PPP2R3A mRNA; 1 µM, 6 h; relative to: untreated cells): -1.3
COc1ccc(C2CC(=O)c3c(cc(O)c(CC=C(C)C)c3O)O2)cc1 (stereo not shown) — inhibition (HeLa; cell growth or viability, MTT; 6.25 µM, 48 h): 10.4%
COc1cc(N2CCN(C(=O)CN)CC2)ccc1Nc1ncc(Cl)c(Nc2ccccc2P(C)(C)=O)n1 — viability (NCI-H3122; CCK-8; 250 nM, 48 h): 27%
CCCCCCc1cccc([C@H](O)C[C@H](CO)NC(=O)CCCCCOc2ccc3ccccc3c2)c1 — total ceramide level (HeLa; CERT activity, HPLC-MS/MS lipidomics; 1 µM, 24 h, not cell-number normalised): 63000 pmol/sample and 33700 pmol/sample and 57700 pmol/sample
O=C(CN1CCCCC1)Nc1ccc([C@H]2[C@@H](F)[C@@H](F)C[C@@H](F)[C@H]2F)cc1 — hepatic clearance (mouse liver microsomes; 1 µM): 53 mL/min/kg
O=c1cc(NCc2ccco2)c2ccccc2o1 — calcium mobilisation signal (COS-7 (untransfected); 500 µM, unit not given; relative to: 3 µM ionomycin): 1.66 ± 1.06
CN(C)CCN1CCN(c2ccc3nc(-c4ccc5nc(-c6ccc(C(F)(F)F)cc6)[nH]c5c4)[nH]c3c2)CC1 — growth percent (SK-MEL-2; SRB; 10 µM, 48 h): 52%

For quick reference, copied from above:
CN1CCCNC(=O)c2cccc(c2)C(=O)NCCCN(C)CCCNc2cccc3c2C(=O)c2cccc(c2C3=O)NCCC1 — log2 fold change (SAS; RNA-Seq, item: PPP2R3A mRNA; 1 µM, 6 h; relative to: untreated cells): -1.3
CN(C)CCN1CCN(c2ccc3nc(-c4ccc5nc(-c6ccc(C(F)(F)F)cc6)[nH]c5c4)[nH]c3c2)CC1 — growth percent (SK-MEL-2; SRB; 10 µM, 48 h): 52%
O=C(CN1CCCCC1)Nc1ccc(C2CCCCC2)cc1 — hepatic clearance (human liver microsomes; 1 µM, without NADPH): 12 mL/min/kg
